Measurements of several laboratories.
Numbered parts are unrelated; each lists some results of a single study. Substitutions count along the parent as printed.

Series 1
Target: RNA binding protein fox-1 homolog 2, RRM domain, GST-SBP tag (RBFOX2, Homo sapiens, UniProt O43251-10, residues 100-194)
Technique: RNA Bind-n-Seq
Molecule type: RNA
Medium: in vitro
Concentration: 365 nM
Setting: natural RNA segment, single round, ends assumed
Relative to: no-protein control
Direction: higher = stronger binding
Measurement: RBNS enrichment (R)
Construct (chain): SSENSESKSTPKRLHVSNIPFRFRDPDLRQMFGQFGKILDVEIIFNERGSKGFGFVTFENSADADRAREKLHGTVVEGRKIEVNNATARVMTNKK
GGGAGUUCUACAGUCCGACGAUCAAUGCAUGAAAAACAAAGGCAAAAACUAGUGGGAAAUGUGUAGAACUGUUAACUGAGAUGGCUUCGAGUCUUCCUUCUGGAAUCUGUUAAAUUUCACAAAGUCAUGAGGGUGGAAUUCUCGGGUGCCAA: 3.15
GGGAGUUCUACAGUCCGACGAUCGGUCAUAAUUCAGUAUAUACUAGCCUACUCAUCUCUGAAGACUGACUUUGCUCGUAAUUUUUUUUUAAUUGGCCACAUAGCAUUAAUGCCUCCACAGGGUUCCUGUGUUUUGGAAUUCUCGGGUGCCAA: 0.652
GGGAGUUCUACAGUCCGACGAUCGGUUACCAUCAGAGUGGAUGUACCAUUGAGUUAAAAACAAGAUAGAAAAACUGCCAAGUUGUUUGGCAAGUGAUUGUUCUGAAAUACCUUGCAAGAUACCGAUAUUCAAGUGGAAUUCUCGGGUGCCAA: 0.389
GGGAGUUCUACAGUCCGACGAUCAAAAGAAUCCCUUGAGCAUCUCCCUAGGAGUCCACCCCCUGGAUUCCUUUACUCAAGGGUUUGGGGAGCAGCCCACAGGAGCGCUGCCUCCAUUUGACAUGCCUUCGGGGUGGAAUUCUCGGGUGCCAA: 0.366
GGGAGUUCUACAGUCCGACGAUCGUUUUAUGGCCAGUGAUCCUCAAAUCCAUUGGCUGUUUGAAGACCCUGUCCUCACUUCUCCUUUUUUCAGGUGACUCUCUGCUUGGCUCUUUAUCUUACUCUUCAGCUAAUGGAAUUCUCGGGUGCCAA: 0.482
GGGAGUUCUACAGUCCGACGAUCCUUUGUCUCCACCACACAUAGUGUACUUUGGAAGCACAACGUCCAGGCUGGUACCGCAGCGCCAUGCCCAUUCCUCGCCUCAUUCAUAGGACACUUCACUGCCAUUUUCUUGGAAUUCUCGGGUGCCAA: 0.26
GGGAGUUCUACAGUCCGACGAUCAAGGAAUCAGUUACUAUUUAAGUUUGUUUUACAAUGCAAUAAAAGAUACAAGCUGCAGAGAAAAGUAAACUCUGCAAAGAACACUGGUAAUAAUUGUUCUGCAAAGGUUAUGGAAUUCUCGGGUGCCAA: 0.435
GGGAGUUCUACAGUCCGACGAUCAACAUUUGUGUUUUGGAGCUCACUUUUAGUUUUGAAACGGCCUUUGCUCGUUAUAUUGUGAUCCAGUACAUUUUAUGUUAAAUUGUUUAUCAGCCAUUUCUGUUGUGAACUGGAAUUCUCGGGUGCCAA: 0.654
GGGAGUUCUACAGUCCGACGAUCACUCCGUUUCCAGUGAGCAGAUGUCUUGCUUGGAAAGUGGACCUGUGUCUGUGUCUGUCCUGAGAACUUACCAGCAGAAAUCCUCAUUUCUGUGCUACGGAUUUACCAAAUGGAAUUCUCGGGUGCCAA: 0.33
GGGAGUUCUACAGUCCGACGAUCCUAUUUUACUAGUGUUUUAUAUGAACAAAGUACUGCAGAAGUUAAACCUGUGUUGUAUUUUUUCUGAGAUGUUUUGCUUUAAGAGAUACUUUUUGCUCAGUUUUUAUAUGUGGAAUUCUCGGGUGCCAA: 0.848
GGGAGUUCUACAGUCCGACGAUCUCCUCACUCUUCCACUGACCCACUGUGUGACCUGAAGAGAGCCCUGCCCUCUCUGAGCCUCAGUGUUUGGAGGGCCCCAAAGAAUUCCCGUCUUGUGGGGGAGUUUUCUUUGGAAUUCUCGGGUGCCAA: 0.291
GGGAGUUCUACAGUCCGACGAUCAACUGAUUUAAAUAAUAUGUGUCUUUGUUUUGCAGCCCUGAAUGCAAAGAAUUCAUAGCAGUUAAUUCCCCUUUUUGACCCUUUUGAGAUGGAACUUUCAUAAAGUUUCUUGGAAUUCUCGGGUGCCAA: 0.427

Series 2
Target: Interferon regulatory factor 7, full length, phosphomimetic (IRF7, Homo sapiens, UniProt Q92985, residues 1-503, S101K/S471D/S472D/S475D/S476D/S477D/S483D/S484D/S487D)
UniProt Q92985, sequence (whole entry, unmodified, looked up): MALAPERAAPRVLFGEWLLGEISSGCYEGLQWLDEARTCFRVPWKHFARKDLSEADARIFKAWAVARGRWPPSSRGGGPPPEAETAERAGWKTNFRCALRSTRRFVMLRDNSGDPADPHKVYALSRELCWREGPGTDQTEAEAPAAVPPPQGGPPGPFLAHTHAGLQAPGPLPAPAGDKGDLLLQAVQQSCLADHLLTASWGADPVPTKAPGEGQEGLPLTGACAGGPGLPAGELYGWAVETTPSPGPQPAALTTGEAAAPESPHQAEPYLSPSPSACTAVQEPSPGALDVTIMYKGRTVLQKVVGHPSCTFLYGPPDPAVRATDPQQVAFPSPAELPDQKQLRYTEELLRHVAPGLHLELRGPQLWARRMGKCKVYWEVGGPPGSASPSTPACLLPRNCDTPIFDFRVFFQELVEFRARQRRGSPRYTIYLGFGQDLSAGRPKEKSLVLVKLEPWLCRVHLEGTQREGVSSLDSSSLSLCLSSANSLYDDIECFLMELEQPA
Technique: protein-binding microarray
Molecule type: double-stranded DNA, one strand shown
Medium: in vitro
Concentration: 250 nM
Setting: 60-bp whole probe
With: salmon DNA 0.4 mg/ml
Relative to: random background probes
Direction: higher = stronger binding
Measurement: log fluorescence
Shared flanks, not repeated: GCCTAGCAC … GTCTTGATTCGCTTGACGCTGCTG
TCATTTCTGAATGCTCCCACTGTGCTA: 1.24 z-score
TTAAGTTTCGGGACTGGGTTAGTGCTA: 4.45 z-score
CCGCCGCCTGGCTGGGGGATGTGCTAG: -0.359 z-score
GACGGTATCGCTCTCGGGACGTGCTAG: -0.165 z-score
TTAGGTTTCGGACTGGGTTGGTGCTAG: 3.58 z-score
CACTCTCTGGGCTGTGGGTTTGTGCTA: 0.455 z-score
GACGGACTGGGGACTGGGAACGTGCTA: -0.607 z-score
GACGAACTGAGTAACGAGACGTGCTAG: -0.0768 z-score
TCACATTTGGAAAATGAAACTGTGCTA: 1.91 z-score
TTAGGTTTCGGTATCGGTCAGTGCTAG: 10.3 z-score
TTAGGTCTGGGGTTTCGGTTAGTGCTA: 4.62 z-score
CTTCACATATAATTTTGTCATGTGCTA: 0.117 z-score
TTAGATCTCGGTATCGATTAGTGCTAG: 1.27 z-score
CAAAAATGATTGGTTGAACAGTGCTAG: -0.401 z-score
ATGTATATATGTGTATATATGTGCTAG: 0.409 z-score
TCATAAATCTTTGTTGGAACTGTGCTA: -0.167 z-score
GACGGGATCGGTTTCGGGACGTGCTAG: 5.17 z-score
GACGGTTTCCTTCTCCTGCCGTGCTAG: 2.3 z-score
TTGGTTTCTGGTTTATTGAGGTGCTAG: 6.88 z-score

Series 3
Target: NFE2L1, bZIP domain (human)
Technique: DHFR protein complementation
Medium: yeast
Setting: single substitutions, most at no-binding floor
Relative to: wild-type JUN-FOS pair
Direction: higher = stronger binding
Measurement: binding fitness
Parent: JUN, bZIP domain (human); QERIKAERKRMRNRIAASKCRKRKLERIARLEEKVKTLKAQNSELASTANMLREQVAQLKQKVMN; partner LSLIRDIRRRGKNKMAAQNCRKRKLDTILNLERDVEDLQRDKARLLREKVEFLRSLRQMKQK
V56P: -1.53 natural log
S43F: -1.51 natural log
R30V: -1.4 natural log
L45A: -1.57 natural log
L31N: -1.42 natural log
R53G: -1.35 natural log
I28V: -1.44 natural log
T48V: -1.47 natural log
A46I: -1.11 natural log
E44F: -1.55 natural log
S43P: -1.46 natural log
L31V: -1.44 natural log
R53S: -1.48 natural log
N42P: -1.49 natural log
R30T: -1.6 natural log

Series 4
Target: CCNB1, cyclin fold, Cln2 fusion (human)
Technique: yeast growth competition, sequencing
Medium: yeast
Setting: strong parent motif
Relative to: not given
Direction: higher = stronger binding
Measurement: normalised enrichment score
Parent: PKMYT1 docking peptide (human); SFEPRNLLSLFED; partner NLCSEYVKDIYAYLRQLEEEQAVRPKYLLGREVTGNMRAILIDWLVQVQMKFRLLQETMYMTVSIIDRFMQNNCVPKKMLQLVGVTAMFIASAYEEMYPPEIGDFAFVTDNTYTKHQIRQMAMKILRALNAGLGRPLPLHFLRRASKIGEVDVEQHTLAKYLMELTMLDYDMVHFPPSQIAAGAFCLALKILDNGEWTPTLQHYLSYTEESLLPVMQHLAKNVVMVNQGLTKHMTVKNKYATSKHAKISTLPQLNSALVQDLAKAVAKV
F11P: 0.107
E3Y: 1.96
E12S: 0.129
L10D: 1.52
R5W: 0.361
L10N: 0.565
N6E: 0.463
E12W: 0.223
L8E: -2.52
R5H: -1.29
S1G: 1.91
F2Q: 0.00297
L10H: 0.362
N6L: -0.164

Series 5
Target: ABI1, truncated, D143A, DHFR fusion (Arabidopsis thaliana, UniProt P49597)
Technique: DHFR PCA, dose-response
Medium: yeast
Setting: Hill fit, mean, not affinity
With: (+)-ABA, dose series
Direction: lower = more sensitive
Measurement: ABA EC50
Parent: PYL1, truncated, DHFR fusion (Arabidopsis thaliana, UniProt Q8VZS8); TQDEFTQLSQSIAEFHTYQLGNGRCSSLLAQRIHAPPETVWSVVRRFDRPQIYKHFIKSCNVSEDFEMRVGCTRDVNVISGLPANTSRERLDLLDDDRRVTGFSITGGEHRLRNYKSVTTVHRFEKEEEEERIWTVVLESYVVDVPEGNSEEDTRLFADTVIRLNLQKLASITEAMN
A30D: 43.5 µM
R113E: 5.84 µM
R88C: 2.68 µM
M176Q: 2.55 µM
T160G: 24.9 µM
Q31L: 137 µM
K126Q: 1.89 µM
R90Y: 110 µM
V76Y: 23.8 µM
D95W: 95.7 µM
F5H: 3.19 µM
D96H: 59.8 µM
E139Q: 0.768 µM
L8S: 139 µM
S104Y: 208 µM
A13P: 68.2 µM
Y18I: 16.5 µM
S59E: 1.94 µM
A175I: 3.73 µM
V100R: 44.8 µM
E147N: 3.91 µM

Series 6
Target: Sal-like protein 4, full length isoform B (SALL4, Homo sapiens, UniProt Q9UJQ4-2, residues 1-616)
Technique: universal PBM
Molecule type: double-stranded DNA, one strand shown
Medium: in vitro
Concentration: not given
Setting: 8-mer, flanks averaged, mean of replicates
Direction: higher = stronger binding
Measurement: E-score
Residues (chain): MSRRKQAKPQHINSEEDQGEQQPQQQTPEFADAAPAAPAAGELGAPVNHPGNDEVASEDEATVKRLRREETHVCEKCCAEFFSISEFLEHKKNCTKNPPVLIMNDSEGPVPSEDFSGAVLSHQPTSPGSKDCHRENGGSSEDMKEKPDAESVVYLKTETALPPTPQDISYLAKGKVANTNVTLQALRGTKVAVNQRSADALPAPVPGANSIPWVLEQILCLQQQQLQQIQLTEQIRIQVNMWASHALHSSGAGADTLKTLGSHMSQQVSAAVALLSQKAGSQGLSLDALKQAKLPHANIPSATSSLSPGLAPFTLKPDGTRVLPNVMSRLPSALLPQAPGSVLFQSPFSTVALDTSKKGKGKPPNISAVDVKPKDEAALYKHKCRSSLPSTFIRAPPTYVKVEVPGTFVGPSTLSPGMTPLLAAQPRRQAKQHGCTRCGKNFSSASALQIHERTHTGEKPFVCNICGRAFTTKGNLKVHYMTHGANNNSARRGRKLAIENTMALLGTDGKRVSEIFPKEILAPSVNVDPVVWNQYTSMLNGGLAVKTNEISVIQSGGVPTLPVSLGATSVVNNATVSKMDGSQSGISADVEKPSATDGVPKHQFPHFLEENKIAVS
GAGAGCCA: -0.0717
ATCACCAC: 0.0372
ACGAATAC: 0.158
ACTTGGCA: 0.00762
CGATGTTA: 0.106
AGGGCGGG: -0.236
ACTGTGCC: -0.0771
GTTGGGTA: -0.0491
CGAGCCAC: -0.207
AGTGCAGG: -0.233
CTCAGCAG: -0.3
AACGATAG: 0.169
ACGCGATG: -0.0853
GCGCATAC: -0.0252
CAATCCTG: 0.0991
CGCGAAGC: -0.129
ACTCTTAT: 0.327
ACAAAGCT: 0.117
GAAGCTTC: -0.181
CCTCCTCA: -0.125
CACCGGGA: -0.308
GCGTAAAC: 0.0306
CAAGTTCC: -0.111
AGCGGTGG: -0.267
AAAACCAA: 0.208

For quick reference, copied from above (series 5):
R88C: 2.68 µM
M176Q: 2.55 µM
T160G: 24.9 µM
Q31L: 137 µM
K126Q: 1.89 µM
R90Y: 110 µM
V76Y: 23.8 µM
D95W: 95.7 µM
F5H: 3.19 µM
D96H: 59.8 µM
E139Q: 0.768 µM
L8S: 139 µM
S104Y: 208 µM
A13P: 68.2 µM
Y18I: 16.5 µM
